Assay results from different studies.
± gives the spread as reported. Bridges are numbered along the chain shown (N, C = ends). Where no end group is shown, it is not given here.

| Substance | assay | system | setting | how to read | measurement | value |
| --- | --- | --- | --- | --- | --- | --- |
| Clc1cc2c(cc1Cl)Oc1cc(Cl)c(Cl)cc1O2 |  | zebrafish (Danio rerio) embryo, whole embryo, dry weight | waterborne, 10 ppb, 24 hpf |  | internal concentration | 0.96 ppt |
| CC(C)[C@H]1C(=O)N[C@@H](CCCN=C(N)N)C(=O)NCC(=O)N[C@@H](CC(=O)O)C(=O)N[C@H](Cc2ccccc2)C(=O)N1C | radio-HPLC | female cynomolgus monkey, urine | intravenous, dose not given |  | urinary excretion of unchanged drug | ~50% |
| COC(=O)N[C@H](C(=O)N1CCC[C@H]1C(=O)Nc1ccc([C@@H]2CC[C@@H](c3ccc(NC(=O)[C@@H]4CCCN4C(=O)[C@@H](NC(=O)OC)C(C)C)cc3)N2c2ccc(C(C)(C)C)cc2)cc1)C(C)C |  | healthy human volunteers, plasma | oral, dose not given, added: pravastatin plus 2D regimen |  | AUC(0-24) | 1010 ng·h/mL |
| CC(=O)N[C@H](CCCCNC(=O)C(C)F)C(=O)N[C@@H](CS)C(=O)N[C@@H](CS)C(=O)N[C@@H](CCC(=O)O)C(=O)N[C@@H](Cc1c[nH]cn1)C(=O)N[C@H](Cc1ccccc1)C(=O)N[C@@H](CCCNC(=N)N)C(=O)N[C@@H](Cc1c[nH]c2ccccc12)C(=O)N[C@@H](CS)C(=O)N[C@@H](CCCNC(=N)N)C(=O)N1CCC[C@H]1C(=O)N[C@H](C(N)=O)C(C)C (some centres unmarked) [fluorine-18 labelled] |  | C57BL/6 mice, male, B16-F10 tumour, heart | intravenous, 4 h |  | tissue uptake | 0.14 ± 0.06 %ID/g |
| COc1cc(/C=C/c2cc(O)cc(O)c2)ccc1O | LC-MS/MS | mouse, serum | oral, 150 mg/kg |  | Cmax | 47.9 µM |
| CN1CC[C@H](c2c(O)cc(O)c3c(=O)cc(-c4ccccc4Cl)oc23)[C@H](O)C1 |  | patients with advanced solid tumours | intravenous, every 2 weeks, added: FOLFOX |  | maximum tolerated dose | 70 mg/m² |
| COc1cccc2c1C(=O)c1c(O)c3c(c(O)c1C2=O)C[C@@](O)(C(=O)CO)C[C@@H]3O[C@H]1C[C@H](N)[C@H](O)[C@H](C)O1 | two-compartment model | ICR mice, male, plasma | intravenous, 6.0 mg/kg |  | distribution half-life | 2.7 min |
| FFPKVAGVAAKVLKKFCTISKKC (disulfide 17-23 (inferred)) (disulfide) | haemolysis | horse erythrocytes | 2 h, 37 °C |  | HC10 | > 128 µM |
| CSCC[C@@H]1NC(=O)[C@H](CC(=O)O)NC(=O)CNC(=O)[C@H](CCCNC(=N)N)NC(=O)[C@H](C)NC(=O)[C@H](CCC(=O)O)NC(=O)[C@H](CCCNC(=N)N)NC(=O)[C@@H]2CSSC[C@@H]3NC(=O)[C@H](CO)NC(=O)[C@H]([C@@H](C)O)NC(=O)[C@@H]4CCCN4C(=O)[C@H](C)NC(=O)[C@H](Cc4c[nH]c5ccccc45)NC(=O)[C@H](CC(=O)O)NC(=O)CNC(=O)[C@H](CCCNC(=N)N)NC(=O)CNC(=O)[C@H](CCC(N)=O)NC(=O)[C@@H]4CCCN4C(=O)[C@@H](NC(=O)CNC(=O)C(C)F)CSSC[C@H](NC(=O)CNC(=O)[C@H](C)NC(=O)[C@H](CC(C)C)NC(=O)[C@H](CSSC[C@@H](C(=O)NCC(N)=O)NC(=O)[C@H]([C@@H](C)O)NC(=O)[C@H](CCCNC(=N)N)NC(=O)[C@@H]4CCCN4C1=O)NC(=O)[C@H](CC(=O)O)NC(=O)[C@H](CO)NC(=O)[C@H](CC(=O)O)NC(=O)[C@H](CCC(N)=O)NC(=O)[C@H](CO)NC3=O)C(=O)N[C@@H](C(C)C)C(=O)N2 (some centres unmarked) [fluorine-18 labelled] |  | nude mice U-87 MG xenograft, stomach | intravenous, 2.5 h |  | tissue uptake | 0.68 ± 0.16 %ID/g |
| CCCCCCCCCCCCCCCCCC[N+](C)(C)Cc1ccccc1 | in vitro-in vivo extrapolation | human |  |  | hepatic clearance | 1.06 mL/h/g liver |
| [Cl-].[Cs+] |  | air-water interface, water droplet |  |  | surface partition coefficient | ~0 m |
| Oc1cccc2ccccc12 | fish short-term reproduction | Oryzias latipes, male, water, flow-through | 80.0 µg/L, end of exposure |  | body weight | 645 ± 53 mg |
| COC(=O)c1ccc(Nc2ccc3c(c2)C(c2ccccc2F)=NC(C)C(=O)N3)cc1 (centres unmarked) | shake flask | PBS | 24 h, pH 7.4 |  | solubility | < 1 µM |
| CC(C)C[C@H](NC(=O)[C@H](CCC(=O)O)NC(=O)[C@H](CCC(=O)O)NC(=O)[C@H](CC(=O)O)NC(=O)[C@H](CCC(=O)O)NC(=O)[C@H](CCC(=O)O)NC(=O)[C@H](CCC(=O)O)NC(=O)[C@@H](N)CC(=O)O)C(=O)O |  | rat, plasma | subcutaneous, 11.0 mg/kg single dose, 165 min |  | plasma concentration | 989 ng/mL |
| O[C@H]1CCCN[C@@H]1CCCn1cnc2c(Cl)c(Cl)ccc21 |  | healthy human volunteers, plasma | oral, 25 mg, day 1, multiple ascending dose |  | AUC(0-tau) | 94.3 ng·h/mL |
| CC[C@H](C)[C@H](NC(=O)[C@@H](N)CCCNC(=N)N)C(=O)N[C@H](C(=O)N1CCC[C@H]1C(=O)N[C@@H](C)C(N)=O)C(C)C |  | healthy volunteers, both sexes, plasma | intravenous infusion, 4.5 mg/kg daily, day 7, multiple ascending dose |  | AUC(0-t) | 1470 ± 677 ng·h/mL |

| Substance | assay | system | setting | how to read | measurement | value |
| --- | --- | --- | --- | --- | --- | --- |
| CN[C@@](C)(C[18F])C(=O)O |  | SCID mouse U87 xenograft, liver | 120 min, post injection |  | tissue uptake | 5 ± 0.8 %ID/g |
| COc1ccc(-c2cc(=O)c3c(OC)c(OC)c(OC)c(OC)c3o2)cc1OC |  | C57BL/6 mouse, male, feces | oral, 1% w/w in diet, 6 weeks, orange peel extract diet | baseline: content in orange peel | tissue to peel content ratio | 127% |
| CNC(=O)c1ccc(-c2cnn3ccc(C(=O)N(C)c4ccc(Cl)c(C(=O)OC)c4)cc23)cc1 |  | rat, Wistar or Sprague Dawley, male, plasma, jugular vein (systemic) | oral, 100 mg/kg |  | Cmax | 0.005 µM |
| Cc1ccc(Nc2nc(-c3ccc(-c4ccccc4)cc3)cs2)nc1 |  | FVB mouse | oral in liquid diet, 210 mg/kg/day, 14 days |  | lethal toxicity | not toxic |
| CS(=O)(=O)CCCn1c(Cn2c(=O)n(CC(F)(F)F)c3ccncc32)cc2cc(Cl)ccc21 |  | RSV-infected infants | concentration not given, all dose cohorts |  | patients with high MCH | 3% |
| COc1ccc(C[C@@H]2NC(=O)[C@H]([C@@H](C)O)NC(=O)[C@@H]3[C@@H]4CCN3C(=O)[C@@H]3Cc5cn(c6ccc(F)cc56)CCCCCCN(Cc5ccc(cc5)CCNC(=O)[C@]5(C)CCCN5C2=O)C(=O)CCC(=O)N[C@@H](C)C(=O)N[C@H](CNC(=O)CCCCC[N+](C)(C)C)C(=O)N[C@@H](Cc2cccc(c2)CNC(=O)CO4)C(=O)N3)cc1 |  | human, plasma | oral, 10 mg, days 1 and 14, added: low-fat breakfast 30 min before | baseline: fasted | reduction of AUC, Cmax, C24 | 40 to 55% |
| FFEE (N-dodecyl chain) | TEM | peptide, DPBS | 24 h aging |  | nanofibre diameter | 8.5 ± 0.9 nm |
| NC(=O)c1nc(F)c[nH]c1=O | UV-Vis spectrophotometry | supercritical CO2 | 120 min, 308 K, 15 MPa, 816.06 kg/m^3 |  | solubility | 254 µg/mL |
| CCCCCCCCCCCCCC(=O)NCC(=O)N[C@@H](Cc1ccc(O)cc1)C(=O)NCC(=O)N[C@@H](CCCNC(=N)N)C(=O)N[C@@H](CCCCN)C(=O)N[C@@H](CCCCN)C(=O)N[C@@H](CCCNC(=N)N)C(=O)N[C@@H](CCCNC(=N)N)C(=O)N[C@@H](CCC(N)=O)C(=O)N[C@@H](CCCNC(=N)N)C(=O)N[C@@H](CCCNC(=N)N)C(=O)N[C@@H](CCCNC(=N)N)C(=O)N[C@@H](C)C(=O)N[C@@H](CCCNC(=N)N)C(=O)N[C@@H](CO)C(=O)N[C@@H](CCCNC(=N)N)C(=O)N[C@@H](CC(C)C)C(=O)N[C@@H](C)C(=O)N[C@@H](CCC(=O)O)C(=O)N[C@@H](CC(C)C)C(=O)N[C@@H](CCCNC(=N)N)C(=O)NCC(=O)N[C@H](C(=O)N1CCC[C@H]1C(=O)N[C@@H](CCCNC(=N)N)C(=O)NCC(=O)N[C@@H](CC(C)C)C(=O)O)C(C)C |  | rat | intrathecal, 20 µg/5 µL, cutoff 180 s |  | minimum time on rotarod | 147 ± 20 s |
| CCCCCOc1ccc(-c2cc(-c3ccc(C(=O)N[C@H]4C[C@@H](O)[C@@H](O)NC(=O)[C@@H]5[C@@H](O)[C@@H](C)CN5C(=O)[C@H]([C@H](O)CC(N)=O)NC(=O)[C@H]([C@H](O)[C@@H](O)c5ccc(O)c(OS(=O)(=O)O)c5)NC(=O)[C@@H]5C[C@@H](O)CN5C(=O)[C@H]([C@@H](C)O)NC4=O)cc3)no2)cc1 |  | infants on ECMO | intravenous, multiple doses median |  | clearance | 0.333 mL/min/kg |
| Cc1cc(C(C#N)c2ccc(Cl)cc2)c(Cl)cc1NC(=O)c1cc(I)cc(I)c1O (centres unmarked) | HPLC, non-compartmental | Corriedale lambs, parasitized, plasma | subcutaneous, 5 mg/kg, added: moxidectin 0.2 mg/kg subcutaneous |  | Tmax | 45.8 ± 16.6 h |
| CCCCCCCCCCCCCCCC[N+](C)(C)C | substrate depletion | human liver microsomes | 0.5 µM, 0 to 3 h, 37 °C, added: NADPH |  | intrinsic clearance | 0.069 mL/h/mg protein |
| O=C(O)c1cc2c(c3c1c([N+](=O)[O-])cc1c(O)cccc13)OCO2 |  | Wistar rat, male, urine | subcutaneous, 2 mg of aristolochic acid I, 24 h collection |  | urine concentration | 24.1 µM |
| CC(C)c1nc(CN(C)C(=O)N[C@H](C(=O)N[C@@H](Cc2ccccc2)C[C@H](O)[C@H](Cc2ccccc2)NC(=O)OCc2cncs2)C(C)C)cs1 |  | healthy human volunteers, plasma | oral, dose not given, added: pravastatin plus 2D regimen |  | AUC(0-24) | 5380 ng·h/mL |
| bleomycin |  | C57BL/6N mice, pulmonary fibrosis model | intratracheal, 1.5 units/kg once, day 0 | baseline: initial | body weight | 80% |
| [123I]c1cncc(OC[C@@H]2CCN2)c1 | SPECT | human, frontal lobe | intravenous bolus, 7.35 mCi | baseline: tissue over plasma | tissue/plasma ratio | 29.1 |

Repeated from above:
| Substance | assay | system | setting | how to read | measurement | value |
| --- | --- | --- | --- | --- | --- | --- |
| FFPKVAGVAAKVLKKFCTISKKC (disulfide 17-23 (inferred)) (disulfide) | haemolysis | horse erythrocytes | 2 h, 37 °C |  | HC10 | > 128 µM |
| CCCCCCCCCCCCCCCC[N+](C)(C)C | substrate depletion | human liver microsomes | 0.5 µM, 0 to 3 h, 37 °C, added: NADPH |  | intrinsic clearance | 0.069 mL/h/mg protein |
| CC(C)C[C@H](NC(=O)[C@H](CCC(=O)O)NC(=O)[C@H](CCC(=O)O)NC(=O)[C@H](CC(=O)O)NC(=O)[C@H](CCC(=O)O)NC(=O)[C@H](CCC(=O)O)NC(=O)[C@H](CCC(=O)O)NC(=O)[C@@H](N)CC(=O)O)C(=O)O |  | rat, plasma | subcutaneous, 11.0 mg/kg single dose, 165 min |  | plasma concentration | 989 ng/mL |
| COC(=O)N[C@H](C(=O)N1CCC[C@H]1C(=O)Nc1ccc([C@@H]2CC[C@@H](c3ccc(NC(=O)[C@@H]4CCCN4C(=O)[C@@H](NC(=O)OC)C(C)C)cc3)N2c2ccc(C(C)(C)C)cc2)cc1)C(C)C |  | healthy human volunteers, plasma | oral, dose not given, added: pravastatin plus 2D regimen |  | AUC(0-24) | 1010 ng·h/mL |
| bleomycin |  | C57BL/6N mice, pulmonary fibrosis model | intratracheal, 1.5 units/kg once, day 0 | baseline: initial | body weight | 80% |
